Published values of several laboratories.
Protocols differ between the studies behind these lines. ± marks the error that the study gave.

Substance | test | system | conditions | Tmax
CNC(=O)c1ccccc1Sc1ccc2c(/C=C/c3ccccn3)n[nH]c2c1 | – | human, fed, plasma | oral, 10 mg single dose, median | 4.02 h
CC(=O)c1c(C)c2cnc(Nc3ccc(N4CCNCC4)cn3)nc2n(C2CCCC2)c1=O | – | human | oral, 95 mg/m^2 single dose, day 1 | 5 ± 2 h
N[C@]1(C(=O)O)[C@H]2[C@@H](C[C@@H]1F)[C@@H]2C(=O)O | – | human, both sexes, fed, plasma | oral, 10 mg, day 14, multiple ascending dose | 2.5 h
COc1cc(Nc2ncc3c(n2)-c2ccc(Cl)cc2C(c2c(F)cccc2OC)=NC3)ccc1C(=O)O | – | human, phase I | oral, 40 mg twice daily, added: combination with other drug | 1.5 ± 1 h
C[C@H]1CN(C2COC2)CCN1c1ccc(Nc2cc(-c3ccnc(N4CCn5c(cc6c5CC(C)(C)C6)C4=O)c3CO)cn(C)c2=O)nc1 | – | healthy human, both sexes, plasma | oral, 100 mg, added: itraconazole oral solution 200 mg, steady state | 3.46 ± 2.58 h
O=C(c1ccc(OCCN2CCCCC2)cc1)c1c(-c2ccc(O)cc2)sc2cc(O)ccc12 | – | healthy humans, plasma | oral, 60 mg, added: acute green tea | 1.5 h
Platinum | ICP-MS, item: total platinum | human, plasma | cisplatin, cycle 1 day 1, chemotherapy alone, median | 2 h
CC(C)[C@H](N)C(=O)NCCCS(=O)(=O)O | – | human, plasma | oral, 340 mg capsule, day 14, fed, multiple dosing | 0.944 ± 0.388 h
CN(Cc1cnc2nc(N)nc(N)c2n1)c1ccc(C(=O)N[C@@H](CCC(=O)O)C(=O)O)cc1 | – | human, both sexes, plasma | oral, 15 mg, day 1, alone, median | 1.27 h
Cc1ccc(NC(=O)c2ccc(CN3CCNCC3)cc2)cc1Nc1nccc(-c2cccnc2)n1 | – | human patients, plasma | oral, 400 mg/day of imatinib, day 14 of cycle 1, added: IL-2 6 MIU/day days 10-14 | 3.8 h
C[C@H]1C[C@@H]2[C@H]([C@@H](O)C[C@@]3(C)[C@H]2CC[C@]3(O)C(=O)CO)[C@@]2(C)C=CC(=O)C=C12 | item: free compound | human, plasma | oral, once daily, 32 mg, day 1, median | 2 h
Cc1[nH]c(/C=C2\C(=O)Nc3ccccc32)c(C)c1CCC(=O)O | – | human patients | oral, 400 mg/m^2 twice daily, after meal, dose 55 | 2.25 ± 0.5 h
CNc1nc(Nc2ccc(-n3cnc(C)n3)c(OC)c2)nc2c1CC[C@H]2c1ccc(F)cc1 | – | human | oral, 100 mg once daily, day 28, multiple ascending dose, median | 5 h
C[C@H]1[C@H](F)C[C@@H](C(=O)NCc2cc(-c3cnc(C(F)(F)F)nc3)ncc2C(F)(F)F)N1S(=O)(=O)c1ccc(F)cc1 | – | healthy human volunteers, fasted, plasma | oral, 25 to 600 mg single dose, range over doses | 1.5 to 24 h
COCCCCn1c(C(=O)N(CC(C)C)[C@@H]2CNC[C@H](C(=O)N3CCOCC3)C2)nc2ccccc21 | – | human, elderly, plasma | oral, 80 mg once daily, day 1, median | 1.5 h
O=C(Cc1cccc(OC(F)(F)F)c1)Nc1ccc(CCCCc2nnc(NC(=O)Cc3ccccn3)s2)nn1 | – | human patients, plasma | oral, 250 mg three times daily fasted, cycle 1 day 15 steady state | 2 h
CC(C)NC[C@@H](C(=O)N1CCN(c2ncnc3c2[C@H](C)C[C@H]3O)CC1)c1ccc(Cl)cc1 | – | human, Moderate hepatic function, plasma | oral, 100 mg single dose, NCI classification, median | 1 h
NC(=O)N1CCC(CC(=O)N2CCC([C@H]3c4ncc(Br)cc4CCc4cc(Cl)cc(Br)c43)CC2)CC1 | – | human, plasma | oral, 150 mg twice daily, cycle 2 day 15, multiple dose, median, added: gemcitabine 750 mg/m2 | 8 h
COc1ccnc(C[S+]([O-])c2nc3ccc(OC(F)F)cc3[nH]2)c1OC (stereo not shown) | HPLC | human CYP2C19 rapid metabolizers, plasma | oral, 40 mg/day, day 1, esomeprazole | 2 h

Substance | test | system | conditions | Tmax
CCOc1cc([C@@H](CS(C)(=O)=O)N2C(=O)c3cccc(NC(C)=O)c3C2=O)ccc1O[C@@H]1O[C@H](C(=O)O)[C@@H](O)[C@H](O)[C@H]1O | – | healthy human controls, plasma | oral, 30 mg apremilast, matched to severe impairment | 4 h
CC(C)(Sc1ccncc1-c1ccc(C#N)c2ccccc12)C(=O)O | – | humans, male, normal renal function, fasted, plasma | oral, 15 mg | 2.5 h
CCOc1ccc(Cc2cc([C@]34OC[C@](CO)(O3)[C@@H](O)[C@H](O)[C@H]4O)ccc2Cl)cc1 | – | human, plasma | oral, 15 mg, added: sitagliptin 100 mg | 1 h
COc1cccc(-c2ccc(NC(=O)C3=C(C(=O)O)CCC3)c(F)c2)c1 | – | male humans, plasma | oral, 30 to 50 mg once daily, day 0, mean profiles | 3 to 4 h
CCn1c(C(=O)c2cc(C)cc(C#N)c2)c(C(C)C)c(=O)[nH]c1=O | – | healthy humans, plasma | oral, 150 mg once daily, 7 days, median | 1.3 h
CNC(=O)c1ccc(-c2cnc3ncc(Cc4ccc5ncccc5c4)n3n2)cc1F | – | human | oral, capsules | 1 to 4 h
CC(C)(C)c1cc(C(C)(C)C)c(NC(=O)c2c[nH]c3ccccc3c2=O)cc1O | – | human cystic fibrosis patients, capillary plasma | oral, 150 mg twice daily, steady state | 5 h
[13C7]venetoclax | – | human, plasma | intravenous, 100 µg, 15 min infusion, added: venetoclax 100 mg oral | 0.25 h
C#C[C@]1(CO)O[C@@H](n2cnc3c(N)nc(F)nc32)C[C@@H]1O | – | human, plasma | oral, 100 mg once weekly, week 1 | 2 h
COC(=O)c1ccc2c(c1)NC(=O)/C2=C(\Nc1ccc(N(C)C(=O)CN2CCN(C)CC2)cc1)c1ccccc1 | – | human, mild liver impairment, plasma | oral, 200 mg twice daily, steady state | 4 h
O=C(NC[C@H](O)CO)c1ccncc1Nc1ccc(I)cc1F | – | human patients, plasma | oral, 60 mg single dose, day 8, median | 1.25 h
Cc1ccc(NC(=O)c2ccc(CN3CCN(C)CC3)cc2)cc1Nc1nccc(-c2cncc(-c3oncc3C)c2)n1 | – | older healthy human adults, plasma | oral, 175 mg single dose, fed, mean | 5.67 h
COc1ccc2nc([S@@+]([O-])Cc3ncc(C)c(OC)c3C)[nH]c2c1 | HPLC | human CYP2C19 rapid metabolizers, plasma | oral, 40 mg/day, day 1, pantoprazole | 2.25 ± 2.06 h
CCCC[C@H](NC(C)=O)C(=O)N[C@H]1CCC(=O)NC[C@@H](C(=O)N[C@@H](Cc2c[nH]c3ccccc23)C(N)=O)NC(=O)[C@H](CCCNC(=N)N)NC(=O)[C@@H](Cc2ccccc2)NC(=O)[C@H](Cc2c[nH]cn2)NC1=O | – | healthy human, both sexes, plasma | subcutaneous, 3.0 mg once daily, day 1, median | 0.6 h
N#C[C@@H]1C[C@@H]2C[C@@H]2N1C(=O)[C@@H](N)C12CC3CC(CC(O)(C3)C1)C2 | – | healthy human subjects, plasma | oral, 10 mg, day 10, median, added: diltiazem extended-release 360 mg | 0.5 h
O=C([O-])CCCCCCCNC(=O)c1ccccc1O.[Na+] | – | human, severe hepatic impairment, plasma | oral, once daily, day 10, after dose 10, median | 0.52 h
COc1cc(N2CCC(N3CCN(C)CC3)CC2)ccc1Nc1ncc(Cl)c(Nc2ccccc2P(C)(C)=O)n1 | – | healthy humans, plasma | oral, 90 mg, median, added: itraconazole 200 mg twice daily | 2.6 h
Oc1ncnc2[nH]ncc12 | – | human male, plasma | oral, 300 mg ALLO once daily, steady state fed | 1.5 h
